Published values from different studies.
Lines come from different studies, so protocols differ. “And” joins repeats or separate records; there may be more than shown. ± gives the spread as reported.
IDO1: Indoleamine 2,3-dioxygenase 1 (IDO1, Homo sapiens, UniProt P14902)
AKR1C1: Aldo-keto reductase family 1 member C1 (AKR1C1, Homo sapiens, UniProt Q04828)
PPO3: PPO3 (Agaricus bisporus, UniProt C7FF04)
SIRT1: NAD-dependent protein deacetylase sirtuin-1 (SIRT1, Homo sapiens, UniProt Q96EB6)

With `COc1cc(C(=O)NC2CCC(N3CCN(CC4CCC5(CCCC5)C4)CC3)CC2)c(F)cc1Nc1ncc2c(n1)N(C1CCCC1(F)F)CC(F)(F)C(=O)N2C` (stereo not shown) the inhibition was 2.86% (Ephrin type-A receptor 5 (EPHA5, Homo sapiens, UniProt P54756); cell-free assay, TR-FRET; 10 µM).
`C[C@@H]1C[C@@H](O)Cc2cc(O)cc(O)c21` gave an inhibition of 11.2 ± 0.35% (IDO1; kynurenine formation; 100 µM).
`NC(=O)c1ccc(C(=O)NOCc2ccc(Sc3cccc(Cl)c3)c(C(F)(F)F)c2)cc1` has an inhibition of 2.7% (Histone deacetylase 2 (HDAC2, Homo sapiens, UniProt Q92769); cell-free assay, inhibitor; 100 µM).
For `C[C@@]12CC[C@@H]3c4cc(I)c(O)c(I)c4CC[C@H]3[C@@H]1CCC2=O`, the inhibition was 77.5% (AKR1C1; enzyme activity, inhibitor, absorbance; 100 µM, pH 9).
For `O=C1c2c(O)cccc2[C@H]([C@@H]2O[C@H](CO)[C@@H](O)[C@H](O)[C@H]2O)c2cc(CO)cc(O)c21`, the inhibition was 66.59 ± 0.51% (IDO1; kynurenine formation; 100 µM).
The inhibition of `CC[C@H](C)[C@H](NC(=O)[C@H](CCC(=O)O)NC(=O)[C@@H](NC(=O)[C@H](CCC(N)=O)NC(=O)[C@@H](N)CCCCN)[C@@H](C)CC)C(=O)N[C@@H](CCCCN)C(=O)N[C@@H](CCCCN)C(=O)N[C@@H](Cc1ccccc1)C(=O)N[C@@H](CCCCN)C(=O)O` is reported as 97% (Gap junction alpha-1 protein (GJA1, Homo sapiens, UniProt P17302); ATP release, inhibitor; C6-Cx43; 250 µM, expected value).
`C[C@]12CC[C@@H]3c4cc(I)c(O)cc4CC[C@H]3[C@@H]1CCC2=O` has an inhibition of 31.3% (AKR1C1; enzyme activity, inhibitor, absorbance; 10 µM, pH 9).
`OB(O)c1ccc(OCc2ccccc2)nc1F` has an inhibition of at most 20% (Proteasome Macropain subunit PRE2 (PRE2, Saccharomyces cerevisiae S288c, UniProt P30656); 20S proteasome activity; 100 µM, added: Suc-LLVY-AMC).
`Cn1c(=O)oc2ccc(-c3ccc(CC(C#N)NC(=O)C4CNCCCO4)c(F)c3)cc21` (stereo not shown): “WBC count decreased incidence” 11.1% (human; oral, 20 mg once daily, TEAE, multiple ascending dose).
For `O=C(CCCCCCN1CCN(c2ccc(Nc3ncc(F)c(-c4cn(C5CCCC5)nn4)n3)cc2)CC1)NO`, inhibition read “no effect” (Histone deacetylase 11 (HDAC11, Homo sapiens, UniProt Q96DB2); enzyme activity, inhibitor; 500 nM).
The inhibition of `C[C@@]12CC[C@@H]3c4ccc(O)cc4CC[C@H]3[C@@H]1CCC2=O` is reported as 7.5% (AKR1C1; enzyme activity, inhibitor, absorbance; 10 µM, pH 9).
With `COc1cc(CNC(=O)C[C@H](C)CCC=C(C)C)ccc1OCc1cn(-c2ccc(Cl)cc2Cl)nn1` the growth percent was 92% (UACC-257 melanoma cells; SRB; 10 µM, 48 h).
For `COc1ccc(C2CC(c3ccc(C)cc3)=Nc3ccccc3S2)cc1` (stereo not shown), the inhibition was 23% (PPO3; enzyme activity, inhibitor; 25 µg/mL).
`[64Cu+2].c1ccc(CNCc2ccc(CN3CCCN4CCNCCCN(CC4)CC3)cc2)nc1` gave a tissue uptake of 6.57 ± 2.5 %ID/g (CXCR4; NOD/SCID mouse, U87 and U87-stb-CXCR4 xenografts, lungs; iv, 120 min, ex vivo).
`COc1ccc2c(c1)CC[C@@H]1[C@@H]2CC[C@@]2(C)C(=O)CC[C@@H]12` gave an inhibition of 20% (AKR1C1; enzyme activity, inhibitor, absorbance; 100 µM, pH 9).
With `NCCC(=O)N[C@@H](Cc1c[nH]c2ccccc12)C(=O)N[C@@H](Cc1ccc(Cl)cc1)C(=O)N[C@@H](Cc1ccccc1)C(N)=O` the inhibition was over 50% (Ephrin type-A receptor 4, ectodomain (Epha4, Mus musculus, UniProt Q03137); ephrin-A5 binding, antagonist, ELISA; 500 µM, added: ephrin-A5-AP).
`N#C/C(=C\c1ccc(-c2cc(Cl)ccc2Cl)o1)C(=O)Nc1cccc2ncccc12` gave an inhibition of 62% (SIRT1; enzyme activity, inhibitor; 100 µM).
`Cc1cc2c(NC(=O)N[C@@H]3CC(C)(C)Oc4cc(C(F)(F)F)ccc43)c(C)ccc2cn1` has an inhibition of 95.4 ± 1.8% (Transient receptor potential cation channel subfamily V member 1 (TRPV1, Homo sapiens, UniProt Q8NER1); acid-evoked calcium influx, antagonist; HEK293, human; 11.25 µM, pH 5).
`C[C@]12CCC[C@H]1[C@@H]1CCc3cc(O)ccc3[C@H]1CC2` has an inhibition of 13.8% (AKR1C1; enzyme activity, inhibitor, absorbance; 10 µM, pH 9).
The inhibition of `CC(C)C[C@H](NC(=O)c1ccc2c(c1)nc(-c1c(F)cccc1Cl)n2C1CCCCC1)C(=O)O` is reported as under 30% (SIRT1; enzyme activity, inhibitor, fluorescence; 10 µM).
For `COc1cc(CNC(=O)C[C@H](C)CCC=C(C)C)ccc1OCc1cn(-c2ccc([N+](=O)[O-])cc2)nn1`, the growth percent was 69.4% (UACC-257 melanoma cells; SRB; 10 µM, 48 h).
`CC[C@H](C)[C@H](NC(=O)[C@H](CCCNC(=N)N)NC(=O)[C@H](CCCCN)NC(=O)[C@@H]1CCCN1C(=O)[C@@H]1CCCN1CCCN(CC[C@H](N)C(=O)O)C[C@H]1O[C@@H](n2cnc3c(N)ncnc32)[C@H](O)[C@@H]1O)C(=O)N[C@@H](C)C(N)=O` gave an inhibition of under 30% (Histone-lysine N-methyltransferase SETD7 (SETD7, Homo sapiens, UniProt Q8WTS6); enzyme activity, inhibitor; 100 µM).
With `CC(=O)C12NC(C)(C)CC1(C)C(=O)C1=C2c2c(c3c4n2C(C)(C)CC2=C4C4(CC(C)(C)NC(C)(C4)C2=O)CC3(C)C)C(=O)C(C)(C)N1` (single isomer, unassigned; (+)) the inhibition was 64.5% and 57.3% (Voltage-dependent P/Q-type calcium channel subunit alpha-1A (Homo sapiens, UniProt O00555); ion current, inhibitor, patch clamp; HEK-293T; 10 µM).
For `Clc1ccc(NN=C(c2ccccc2)c2ccccn2)nc1`, inhibition read “inhibited” (Lysine-specific demethylase 4E (KDM4E, Homo sapiens, UniProt B2RXH2); demethylase activity, inhibitor, coupled formaldehyde dehydrogenase; 10 µM, added: H3K9me3 peptide).
With `NC(=O)C1CCCc2c1[nH]c1ccc(Cl)cc21` (stereo not shown) the inhibition was 33% (SIRT1; HepG2; 10 µM, 6 h).
`CN1CCN(CCCNC(=O)c2cc3c(-c4ccc(Cl)cc4)nn(C)c3s2)CC1` gave an inhibition of over 2 fold (DNA repair protein RAD51 homolog 1 (RAD51, Homo sapiens, UniProt Q06609); D-loop formation; 10 x IC50, added: Ca2+ 1 mM; reference: DMSO).
For `COc1ccc2c(c1Cl)CC[C@@H]1[C@@H]2CC[C@@]2(C)C(=O)CC[C@@H]12`, the inhibition was 21.4% (AKR1C1; enzyme activity, inhibitor, absorbance; 100 µM, pH 9).
`CSCC[C@H](NC(=O)[C@H](CC(C)C)NC(=O)[C@H](Cc1c[nH]cn1)NC(=O)CNC(=O)[C@@H](NC(=O)[C@H](C)NC(=O)[C@H](Cc1c[nH]c2ccccc12)NC(=O)[C@H](CCC(N)=O)NC(=O)CCOCCOCCOCCOCCNC(=O)CN1CCN(CC(=O)O)CCN(CC(=O)O)CCN(CC(=O)O)CC1)C(C)C)C(N)=O` [indium-111 labelled] — result for “tumour to pancreas ratio change”: 1.2 fold (Swiss nu/nu mice, PC-3 xenograft; i.v., 10 pmol, 1 to 4 h; reference: earlier time point).
The tissue uptake of `[64Cu+2].c1cnc(CNCc2ccc(CN3CCCN4CCNCCCN(CC4)CC3)cc2)nc1` is reported as 2.98 ± 0.73 %ID/g (CXCR4; NOD/SCID mouse, U87 and U87-stb-CXCR4 xenografts, stomach; iv, 90 min, ex vivo).
For `C[C@@]12CC[C@@H]3c4cc(Cl)c(O)cc4CC[C@H]3[C@@H]1CCC2=O`, the inhibition was 45.1% (AKR1C1; enzyme activity, inhibitor, absorbance; 100 µM, pH 9).
`O=C(O)c1ccc(-c2coc3ncc(-c4ccccc4)cc23)cc1Cl`: inhibition “inhibited” (MAP kinase-interacting serine/threonine-protein kinase 1 (MKNK1, Homo sapiens, UniProt Q9BUB5); kinase activity, inhibitor, cell-free kinase panel; 1 µM).
`CCCCCCOc1ccc(C2CC(c3ccc(C)cc3)=Nc3ccccc3S2)cc1OC` (stereo not shown) gave an inhibition of 19% (PPO3; enzyme activity, inhibitor; 25 µg/mL).
`C[N+](C)(CC(=O)Nc1cccc(C(F)(F)F)c1)CC(=O)Nc1cccc(C(F)(F)F)c1`: inhibition “inhibited” (Transient receptor potential cation channel subfamily V member 4 (TRPV4, Homo sapiens, UniProt Q9HBA0); calcium influx, antagonist; Huh-7; 1 µM, added: GSK1016790A 10 nM).
Under inhibition, `CC1=C(/C=C/C(C)=C/C=O)C(C)(C)CCC1` is recorded as “no inhibition” (Cyclic nucleotide-gated channel alpha-1 (CNGA1, Bos taurus, UniProt Q00194); cGMP-activated current, inside-out patch clamp; Xenopus oocytes; concentration not given, added: cGMP 2 mM).
`C[C@@H](N)C1CCN(S(=O)(=O)c2cccc3c(=O)[nH]ccc23)CC1` gave an inhibition of over 95% (Rhodopsin kinase GRK1 (GRK1, Homo sapiens, UniProt Q15835); cell-free assay, competition with immobilised ligand; 10 µM).
`COc1cc2c(cc1I)[C@H]1CC[C@@]3(C)C(=O)CC[C@H]3[C@@H]1CC2` gave an inhibition of 1% (AKR1C1; enzyme activity, inhibitor, absorbance; 10 µM, pH 9).
The inhibition of `OB1OCc2ccc(-n3cc(Sc4cccc(Cl)c4)c4ccccc43)cc21` is reported as over 50% (Leucine--tRNA ligase, cytoplasmic (LARS1, Homo sapiens, UniProt Q9P2J5); aminoacylation, inhibitor; 100 µM).

For quick reference, copied from above:
`Cn1c(=O)oc2ccc(-c3ccc(CC(C#N)NC(=O)C4CNCCCO4)c(F)c3)cc21` (stereo not shown): “WBC count decreased incidence” 11.1% (human; oral, 20 mg once daily, TEAE, multiple ascending dose).
For `COc1ccc2c(c1Cl)CC[C@@H]1[C@@H]2CC[C@@]2(C)C(=O)CC[C@@H]12`, the inhibition was 21.4% (AKR1C1; enzyme activity, inhibitor, absorbance; 100 µM, pH 9).
The inhibition of `CC(C)C[C@H](NC(=O)c1ccc2c(c1)nc(-c1c(F)cccc1Cl)n2C1CCCCC1)C(=O)O` is reported as under 30% (SIRT1; enzyme activity, inhibitor, fluorescence; 10 µM).
`CN1CCN(CCCNC(=O)c2cc3c(-c4ccc(Cl)cc4)nn(C)c3s2)CC1` gave an inhibition of over 2 fold (DNA repair protein RAD51 homolog 1 (RAD51, Homo sapiens, UniProt Q06609); D-loop formation; 10 x IC50, added: Ca2+ 1 mM; reference: DMSO).
